Results collected from several papers.
Every numbered part comes from another study and shows a few of its results, in no order. Substitutions count along the parent as printed.
Chain of UniProt Q9UBS0 (whole entry, looked up): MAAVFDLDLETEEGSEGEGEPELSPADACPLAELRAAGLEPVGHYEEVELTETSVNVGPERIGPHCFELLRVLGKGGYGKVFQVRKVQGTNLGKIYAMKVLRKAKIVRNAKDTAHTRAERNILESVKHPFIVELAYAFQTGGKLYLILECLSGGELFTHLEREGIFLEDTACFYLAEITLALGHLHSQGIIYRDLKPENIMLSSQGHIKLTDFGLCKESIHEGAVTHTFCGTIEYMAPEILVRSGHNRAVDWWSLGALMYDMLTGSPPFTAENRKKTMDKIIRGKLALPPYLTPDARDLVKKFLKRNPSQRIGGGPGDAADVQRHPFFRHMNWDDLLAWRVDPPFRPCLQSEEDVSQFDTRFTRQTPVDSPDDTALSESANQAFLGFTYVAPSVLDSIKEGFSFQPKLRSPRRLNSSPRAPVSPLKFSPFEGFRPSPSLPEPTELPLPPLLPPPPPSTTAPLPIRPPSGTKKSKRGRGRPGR
Chain of UniProt P62344 (whole entry, looked up): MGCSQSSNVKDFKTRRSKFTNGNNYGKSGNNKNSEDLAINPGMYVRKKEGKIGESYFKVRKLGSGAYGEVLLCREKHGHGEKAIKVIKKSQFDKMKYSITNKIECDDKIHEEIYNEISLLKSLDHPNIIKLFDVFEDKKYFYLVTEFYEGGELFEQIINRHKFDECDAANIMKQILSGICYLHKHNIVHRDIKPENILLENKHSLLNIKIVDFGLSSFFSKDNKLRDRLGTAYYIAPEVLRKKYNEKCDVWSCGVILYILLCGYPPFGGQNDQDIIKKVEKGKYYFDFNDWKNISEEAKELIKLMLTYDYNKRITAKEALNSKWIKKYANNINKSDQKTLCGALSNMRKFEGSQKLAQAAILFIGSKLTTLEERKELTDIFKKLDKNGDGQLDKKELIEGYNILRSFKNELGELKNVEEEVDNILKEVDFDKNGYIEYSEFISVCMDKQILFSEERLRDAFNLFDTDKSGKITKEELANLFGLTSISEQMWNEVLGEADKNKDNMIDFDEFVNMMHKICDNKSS

Series 1
Cell line: A-375
Concentration: 100 µM
Time: 36 h
Compound	viability [%]
CCC1(c2cccc(O)c2)CCCCN(C)C1 (stereo not shown)	112
C/C=C(\C)C(=O)N[C@@H](c1ccccc1)[C@@H](O)C(=O)O[C@H]1C[C@@]2(O)[C@@H](OC(=O)c3ccccc3)[C@@H]3[C@]4(OC(C)=O)CO[C@@H]4C[C@H](O)[C@@]3(C)C(=O)[C@H](OC(C)=O)C(=C1C)C2(C)C	27.6
CCCCCCC(=O)O[C@H]1CC[C@H]2[C@@H]3CCC4=CC(=O)CC[C@]4(C)[C@H]3CC[C@]12C	0.851

Series 2
Target: HLA class I histocompatibility antigen, A alpha chain, allele A*26:03 (Homo sapiens, UniProt P04439)
Effect on: peptide-MHC binding
Molecule type: peptide
Concentration: concentration not given
Molecule	binding
ALFDRPAFK	inactive
REVFDYLLP	inactive
RSLFNTVAVLY	inactive
DTWHGFKNM	active
KLYVNGKAY	inactive
EELKSLFNTV	inactive
NVHRSQFAQ	inactive
FRHSVVVPY	inactive

Series 3
Target: CCNE2, cyclin fold, Cln2 fusion (human)
Method: yeast growth competition, sequencing
Matrix: yeast
Setting: strong parent motif
Relative to: not given
Reading: higher = stronger binding
Starting sequence: viral docking peptide; KGVKRKLFAEDSS; partner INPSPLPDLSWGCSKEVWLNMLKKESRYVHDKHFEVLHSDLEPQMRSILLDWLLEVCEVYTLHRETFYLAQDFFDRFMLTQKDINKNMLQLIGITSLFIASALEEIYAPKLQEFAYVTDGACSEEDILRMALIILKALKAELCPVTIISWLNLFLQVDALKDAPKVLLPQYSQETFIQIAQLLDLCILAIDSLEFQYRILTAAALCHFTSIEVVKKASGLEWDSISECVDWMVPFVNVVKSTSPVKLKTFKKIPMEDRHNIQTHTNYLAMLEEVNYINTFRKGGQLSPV
Variant	normalised enrichment score
KVVKRKLFAEDSS [G2V]	5.33
KGLKRKLFAEDSS [V3L]	1.27
KGVARKLFAEDSS [K4A]	5.3
KGVKRKLFACDSS [E10C]	5.78
KGFKRKLFAEDSS [V3F]	5.38
KGVKQKLFAEDSS [R5Q]	0.833
KGVKRKLFHEDSS [A9H]	6.37
KGVKRKLFAHDSS [E10H]	5.18

Mixed results
Compound	tested on	assay	test system	setting	endpoint	value
CC(C)(C)c1cc(C=C(C#N)C#N)cc(Br)c1O	Ribosomal protein S6 kinase beta-2 (RPS6KB2, Homo sapiens, UniProt Q9UBS0)	enzyme activity, inhibitor	–	0.5 µM	remaining activity	102%
Cc1cc(C)c(-n2ccn3nc(-c4cccnc4)cc23)cc1NC(=O)c1cc(C#N)cc(S(F)(F)(F)(F)F)c1	Calcium-dependent protein kinase 1 (CDPK1, Plasmodium falciparum, UniProt P62344)	cell-free assay, competition with immobilised ligand	–	0.1 µM	remaining binding	88.9%
CCOc1ccc(N2C(=O)N=C(O)C3(Cc4c(ccc5ccccc45)N(C)C3)C2=O)cc1 (stereo not shown)	–	–	mouse, microsomes or S9	2 µM, 0.5 h	remaining compound	27.4%
